Published values pooled from the literature.
Lines come from different studies, so protocols differ. ± marks the error that the study gave.

Compound	tested on	test	system	conditions	quantity	result
N=C(N)NCCC[C@@H]1NC(=O)[C@H](Cc2c[nH]c3ccccc23)NC(=O)[C@@H](CC2CCCCC2)NC(=O)[C@@H]2CCCN2C(=O)[C@@H](NC(=O)CCc2ccccc2)CCCNC1=O	–	–	C57BL/6J mouse, plasma plasma	intravenous, 1 mg/kg single dose	MRT(0-last)	19.7 min
O=C(CCCC(=NO)c1ccc2c(c1)c1ccccc1n2CC(=O)NO)NO	histone deacetylase, mouse	inhibitor	GL261 cell nuclear extract	–	IC50	1.2 µM
CCCCC/C=C/C(=O)CCc1ccc(O)c(OC)c1	mAb 2-LD2	antibody binding, indirect competitive ELISA	–	added: coating antigen hapten 2-OVA	IC50	0.00057 µg/mL
C=CC(=O)N1[C@@H](c2ccc3c(c2)OCO3)c2[nH]c3ccccc3c2C[C@H]1C(=O)N1CCN2CCOC[C@H]2C1	human NanoLuc-cyclin E1 N112C	probe labelling, BRET-ABPP	HEK293T cell lysate	2 h pre-treatment, target engagement, added: probe YZ-01-A 10 µM 90 min	IC50	1 µM
CN1CCN(Cc2ccc(NC(=O)c3ccc(C(C)(C)C)c(C#Cc4cnc5cccnn45)c3)cc2C(F)(F)F)CC1	RIPK2	NF-kB reporter gene, inhibitor	HEK-Blue NOD2 NF-kB-SEAP	8 h, added: 1 µg/mL L18-MDP	IC50	> 10 µM
N=C(N)NC[C@@H]1O[C@H](O[C@H]2[C@@H](O)[C@H](O[C@@H]3[C@@H](O)[C@H](NC(=N)N)C[C@H](NC(=N)N)[C@H]3O[C@H]3O[C@H](CNC(=N)N)[C@@H](O)[C@H](O)[C@H]3NC(=N)N)O[C@@H]2CO)[C@H](NC(=N)N)[C@@H](O)[C@@H]1O	RNase P holoenzyme Escherichia coli	–	–	37 °C, added: 10 mM Mg2+	IC50	~6 µM
CC[C@H](C)[C@@H]1NC(=O)[C@H](CCCNC(=N)N)NC(=O)[C@@H]2CCCN2C(=O)[C@H](C(C)C)NC(=O)[C@H](CO)NC(=O)[C@H]([C@@H](C)O)NC(=O)CNC(=O)[C@H](CC(=O)O)NC(=O)[C@@H](NC(=O)[C@@H](N)C(C)C)CSSC[C@@H](C(=O)N[C@H](C(=O)O)C(C)C)NC1=O	TGF-beta signalling	Smad2/3 reporter gene, antagonist	HEK-293T	4 h, added: TGF-beta 1 ng/mL	IC50	> 100 µM
COc1cc(CCC(C)=O)ccc1O	mAb 2-LD2	antibody binding, indirect competitive ELISA	–	added: coating antigen hapten 4-OVA	IC50	1.25 µg/mL
O=C(CCCCCCCc1ccc2[nH]c3ccccc3c2c1)NO	histone deacetylase, mouse	inhibitor	GL261 cell nuclear extract	–	IC50	0.6 µM
O=C(/C=C/c1coc2ccccc2c1=O)N1CCN(C(=S)SC2CC2)CC1	tomato spotted wilt virus	viral infection, half-leaf method	Nicotiana glutinosa	500 µg/mL	protective effect	54.9 ± 3.4%
Cc1cc(N)c2cc(NC(=O)COCC(=O)Nc3ccc4nc(C)cc(N)c4c3)ccc2n1	factor Xa	anticoagulant neutralization, chromogenic	–	added: enoxaparin 0.2 IU/mL, human antithrombin III	IC50	13.6 ± 0.6 µM
CC(C)c1cnc(-c2cc(Cl)ccc2F)cc1Nc1ccncc1C(=O)NC(CO)CO	TGF-β receptor type 1 (mouse)	SMAD2 Ser465/467 phosphorylation, inhibitor	4T1	total drug, added: TGF-β	IC50	0.0667 ± 0.0115 µM
Cc1cc(N)c2cc(NC(=O)C(=O)Nc3ccc4nc(C)cc(N)c4c3)ccc2n1	factor Xa	anticoagulant neutralization, chromogenic	–	added: enoxaparin 0.2 IU/mL, human antithrombin III	IC50	8 ± 0.2 µM
O=C(CCCCc1ccc2c(c1)c1ccccc1n2Cc1ccccc1)NO	histone deacetylase, mouse	inhibitor	GL261 cell nuclear extract	–	IC50	0.8 µM
CCN(CC)CCSC(=S)N1CCN(C(=O)/C=C/c2coc3cc(F)ccc3c2=O)CC1	tomato spotted wilt virus	viral infection, half-leaf method	Nicotiana glutinosa	500 µg/mL	inactivation effect	57.5 ± 6.7%
Cc1cc(N)c2cc(NC(=O)CCC(=O)Nc3ccc4nc(C)cc(N)c4c3)ccc2n1	factor Xa	anticoagulant neutralization, chromogenic	–	added: fondaparinux 0.2 IU/mL, human antithrombin III	IC50	38.9 ± 2.1 µM

A few entries again:
Compound	tested on	test	system	conditions	quantity	result
O=C(CCCCc1ccc2c(c1)c1ccccc1n2Cc1ccccc1)NO	histone deacetylase, mouse	inhibitor	GL261 cell nuclear extract	–	IC50	0.8 µM
CCN(CC)CCSC(=S)N1CCN(C(=O)/C=C/c2coc3cc(F)ccc3c2=O)CC1	tomato spotted wilt virus	viral infection, half-leaf method	Nicotiana glutinosa	500 µg/mL	inactivation effect	57.5 ± 6.7%
